Results of several laboratories.
Parts stem from different laboratories: compare values within a part only. Positions count from the first letter of the parent shown.

Block 1 — method: protein binding microarray; form: double-stranded DNA, one strand shown; matrix: in vitro; concentration: not given; reference: not given; reading: higher = stronger binding; measurement: E-score
Target: Histone acetyltransferase KAT6A, both winged helices, GST fusion (KAT6A, Homo sapiens, UniProt Q92794, residues 1-181)
Setting: 8-mer, flanks averaged, mean of 2 arrays, mostly near background
Construct (chain): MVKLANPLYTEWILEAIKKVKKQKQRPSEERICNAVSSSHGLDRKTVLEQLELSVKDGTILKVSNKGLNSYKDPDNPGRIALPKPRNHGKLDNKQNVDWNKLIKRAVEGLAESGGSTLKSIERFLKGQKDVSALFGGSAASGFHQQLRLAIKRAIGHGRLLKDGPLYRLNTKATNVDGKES
AGACCGTG: 0.217
ATGCCCAT: -0.211
AATAGGCC: -0.0282
CCCCATCG: 0.0338
AAGTATGT: -0.217
CAATGCGA: -0.097
CCAATTCA: -0.152
CTTCAACA: -0.0611
GAATTTAC: 0.0097
CGGCGATA: 0.303
CATTTATC: -0.0988
GGCAGGAC: -0.00651
CCAGACAC: -0.242
AAGATATT: -0.237
AGCTCTGG: -0.154
ATCCCAGG: -0.221
CATGGATA: -0.0756
GAGCTCGA: -0.0633
CCGCTTAG: 0.169
AAACAAGA: -0.118
AATTCGAG: -0.144
AACTAGAA: -0.0492
CCGCTGCA: 0.168
CGCGAAGA: 0.146
TGTTGAAA: 0.0174

Block 2 — method: aptamer microarray, sandwich; form: DNA with 2'F-ANA; matrix: in vitro; concentration: 200 nM; with: Cy3 exosite-II aptamer, 400 nM; reading: higher = stronger binding; measurement: mean fluorescence intensity; oligonucleotide: GGTTGGTGTGGTTGG
Target: Prothrombin, mature alpha-thrombin (F2, Homo sapiens, UniProt P00734)
Setting: whole 15-mer aptamer, many near background
2'F-ANA at 1 2 3 8 9 12 13: 434 a.u.
2'F-ANA at 2 3 6 7 12 14 15: 473 a.u.
2'F-ANA at 2 3 4 8 9 11 12 13: 611 a.u.
2'F-ANA at 1 4 5 7 8 11: 54 a.u.
2'F-ANA at 1 2 3 4 6 7 8 10 11 13: 54 a.u.
2'F-ANA at 1 3 6 8 12 14: 121 a.u.
2'F-ANA at 4 5 7 9 11 12 13 15: 67.6 a.u.
2'F-ANA at 1 2 4 5 6 9 10 11 15: 53.6 a.u.
2'F-ANA at 2 5 7 8 10 11 12 13 15: 49.6 a.u.
2'F-ANA at 1 3 5 6 9 10 12 14 15: 46.1 a.u.
2'F-ANA at 1 2 4 5 7 8 9 10 12: 102 a.u.
2'F-ANA at 1 2 3 6 9 10 11 12 13 14: 56.1 a.u.
2'F-ANA at 1 2 5 10 13 14 15: 49.1 a.u.
2'F-ANA at 3 5 6 7 8 10 12 15: 63.1 a.u.
2'F-ANA at 1 5 6 7 9 10 13 15: 48.1 a.u.
2'F-ANA at 1 5 7 8 11 12 13 14 15: 46.2 a.u.
2'F-ANA at 3 5 8 9 10 13 14 15: 57.5 a.u.
2'F-ANA at 2 5 6 9 11 12 13 15: 75.6 a.u.
2'F-ANA at 1 3 5 8 15: 63.2 a.u.
2'F-ANA at 1 6 7 8 9 10 13 15: 56.5 a.u.
2'F-ANA at 2 5 6 7 11 13 14 15: 82.9 a.u.
2'F-ANA at 2 6 7 8 10 12 14 15: 88.2 a.u.

Block 3 — target: CCNB2, cyclin fold, Cln2 fusion (human); method: yeast growth competition, sequencing; matrix: yeast; setting: weak parent motif; reference: not given; reading: higher = stronger binding; measurement: normalised enrichment score
Starting sequence: SAMHD1 docking peptide (human); ASKSRVQLFKDDP
Q7C: 0.104
R5V: 0.223
V6I: -0.215
Q7R: 0.227
S2Q: 0.129
D12P: -0.111
Q7K: 0.334
K3V: 0.205
L8V: 0.084
F9G: -0.00413
R5N: -0.369
S4R: 0.301
S4W: 0.0359
K10P: 0.0324
K10F: -0.372
S4N: 0.211
S2A: 0.742
F9R: 0.205
V6M: 0.6
F9W: 0.48

Block 4 — method: RNA Bind-n-Seq; form: RNA; matrix: in vitro; concentration: 365 nM; reference: no-protein control; reading: higher = stronger binding; measurement: RBNS enrichment (R)
Target: RNA binding protein fox-1 homolog 2, RRM domain, GST-SBP tag (RBFOX2, Homo sapiens, UniProt O43251-10, residues 100-194)
Setting: natural RNA segment, single round, ends assumed
Residues (chain): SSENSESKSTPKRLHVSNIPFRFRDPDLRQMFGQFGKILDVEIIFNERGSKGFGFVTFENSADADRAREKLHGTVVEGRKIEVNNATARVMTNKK
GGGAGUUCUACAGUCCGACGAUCAAAGAGAAGACAUCAUCUGGCCAGGCCAAAAAGAAUGGGACAAAGAAAGAAACCCAGAAAACGAGCAAGAGAAAAAAAUCUUCCCCAGUGCCCAACCCCAAUCUCAGCUGUGGAAUUCUCGGGUGCCAA: 1.2
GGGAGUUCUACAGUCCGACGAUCGGCUCCCCCACUAGCUUUCAGGUGGGUAAGUUUUUUUGUUUGUUUUUUGGGGGUCUUUAGACUCUUGAAGGCAACUCAGGGUAUUGUCCACGCAGCUCUCUGGUUAGACUUGGAAUUCUCGGGUGCCAA: 0.281
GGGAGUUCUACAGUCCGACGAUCGCAUCGGAGUCUCGCUAGUUUCUCAUGGUUGGGUCACAGCAUCCUUGUCGCUGUAUUAAGUGCAGUUUUCUUGGAGCCAUAACAACUGUUAAUGCUUAGGAAGCCCAUUUUGGAAUUCUCGGGUGCCAA: 0.499
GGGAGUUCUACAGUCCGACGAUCAGCGGUCUCCAUUUCCCAGGCUCCUCUGGGGUCUCUGCCUCUGGCCGUGUGUCAAGGAGAUGCCCACUGGGGCUCCAACCGUCUUCAGACACUGUGGAAGUGGGAGGGUAUGGAAUUCUCGGGUGCCAA: 0.317
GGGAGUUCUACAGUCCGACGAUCAGCGUCUAUGAGUCUGUAUUCCUGCUCAGUCAUCAACUUGUGUUCCUAUUGAACAUUUGAUCAGAAUGAACUUGCCAAUCAAAACAAAAACAGGACAAUCAAUUUAAGACUGGAAUUCUCGGGUGCCAA: 0.324
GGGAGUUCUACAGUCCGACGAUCGACAAGGACAAAAUCAGUUGUAUUUACAAAACUCUUAACUCGGUAUUUUUUUUUUAAACUGAAUCCUGUUUUGUAAAUAAUAUACAUUUAAUGUUGCUUAGCAUAAAAAAUGGAAUUCUCGGGUGCCAA: 0.856
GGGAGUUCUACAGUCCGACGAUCCUUUGUGCAGCAAAGAUCCCCGUGCAGGUCACAGCCUGAUUUGUGGCCAGGCUGGACAAAUUCCUGAGGCACAACUUGGCUUCAGUUCAGAUUUCAAGCUGUGUUGGUGUUGGAAUUCUCGGGUGCCAA: 1.15
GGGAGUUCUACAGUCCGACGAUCUUUCCGGGCCCUCAGGGCUGGGGAGCUCAGUUCCCAUUGCUUGUGCUCAGGGCUGAGUCUUAAAGAAGGGUUUGCCGGCCCUAACGCUGCAGCGCGUGCGCGGUGAGAGGUGGAAUUCUCGGGUGCCAA: 0.948
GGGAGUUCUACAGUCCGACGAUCGCAUUAUAGGAAUUAGUCCACCACUGGCGUGGGUGAGCAGCCAGGUAAUGGGAAUUGAUCAGUGCCACCACCCUUGACCCCAACUACCAUCCCAGAUGCCCAGAUUCCAGUGGAAUUCUCGGGUGCCAA: 0.599
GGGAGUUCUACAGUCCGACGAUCUAAUUUAACGUGGAAUUCCUUCAUUUCAUAAGAACCUCAAAAUAAUGGUGAUACAUUCUAGCCUUAAGACAUUUGAAUUGCCGGUUGUUGAGGUGAAUUUUGUUUGUCAUUGGAAUUCUCGGGUGCCAA: 0.937
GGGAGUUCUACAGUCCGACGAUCCUCAGUGCACUUUGAACCUGGAAAACAAUCCCAACAGGCCCGUGGGACCAUGACUUAGGGAGGUGGGACCCACCCACCCCCAUCCAGGAACCGUGACGUCCAAGGAACCAUGGAAUUCUCGGGUGCCAA: 0.319
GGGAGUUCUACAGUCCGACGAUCCAAUGCGAGGCUGGUGCAGAUGGAGGUCCUCAUGAAUUAGUGCCAUGCUUUGUGGGAGUCUGGGUCGGCACACUGUCAGUACAUCAGGCACAUGGGCCCACUAGGCUGGGUGGAAUUCUCGGGUGCCAA: 0.723

Block 5 — method: protein-binding microarray; form: double-stranded DNA, one strand shown; matrix: in vitro; concentration: 2540 nM top; setting: 60-bp whole probe; with: salmon DNA 0.4 mg/ml; reference: random background probes; reading: higher = stronger binding; measurement: fitted relative affinity; shared flanks, not repeated: GCCTAGCAC … GTCTTGATTCGCTTGACGCTGCTG
Target: Interferon regulatory factor 3, full length, phosphomimetic (IRF3, Homo sapiens, UniProt Q14653, residues 1-427, S386D/S396D/S398D/S402D/T404D/S405D)
Target sequence (chain): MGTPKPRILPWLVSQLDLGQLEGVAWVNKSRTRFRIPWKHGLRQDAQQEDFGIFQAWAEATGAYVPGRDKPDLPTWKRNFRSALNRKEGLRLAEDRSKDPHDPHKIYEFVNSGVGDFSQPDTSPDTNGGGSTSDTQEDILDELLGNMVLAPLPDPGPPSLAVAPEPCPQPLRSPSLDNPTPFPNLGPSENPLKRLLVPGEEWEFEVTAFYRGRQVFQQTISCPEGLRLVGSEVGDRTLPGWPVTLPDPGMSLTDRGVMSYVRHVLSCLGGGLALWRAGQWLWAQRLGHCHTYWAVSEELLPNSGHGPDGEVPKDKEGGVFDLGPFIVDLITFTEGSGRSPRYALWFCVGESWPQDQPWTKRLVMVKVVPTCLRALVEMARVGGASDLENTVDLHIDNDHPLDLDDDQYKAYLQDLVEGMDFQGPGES
GACGGCATCGACACTGGGGACGTGCTA: -1.06 z-score
GATGATTTCGGGTATCGAGACGTGCTA: 1.13 z-score
TCACCTCTAGGTTTTCTACTGTGCTAG: 0.502 z-score
GGGCACATCTTAACATATGAGTGCTAG: 0.458 z-score
TTAGGAATGGGGACTGGGTTAGTGCTA: -0.727 z-score
GACGGTTTCGACACTGGGGAAGTGCTA: 3.35 z-score
TTAGGTATCGAACTGGGTTAGTGCTAG: 0.465 z-score
TTAGAACTGAGTCTCCATTAGTGCTAG: -0.0268 z-score
TTCGGTCTCCTTTTCCTTTAGTGCTAG: 5.96 z-score
TGATCCAAAAAGTGTGAGAAGTGCTAG: 0.773 z-score
TTAGGTTTCGACTTACGGTTAGTGCTA: 3.32 z-score
TCACATTTTGGTTTTCAACTGTGCTAG: 2.13 z-score
TCACATTGAGATTTTCATACTGTGCTA: 0.295 z-score
TTAGGACGGGACTTTCGGTTAGTGCTA: 1.22 z-score
CTGGGCAGGATGAGTTCCAGGTGCTAG: -0.305 z-score
TCAGCATTCGAATTCAGACTGTGCTAG: 0.657 z-score
GACCGTCTCCTTATCCTGACGTGCTAG: 2.56 z-score
TAAGGTTTCGACACTGGGTTAGTGCTA: 2.34 z-score
GTCGGTTTCCTACTGCTGACGTGCTAG: 6.99 z-score
TTAGGTTTCGTTATCGGTTAGTGCTAG: 6.47 z-score
CTGCATCTGATTTCTCAAACAGTGCTA: 0.01 z-score

For quick reference, copied from above (block 3):
K3V: 0.205
Q7K: 0.334
Q7C: 0.104
F9G: -0.00413
V6I: -0.215
S4W: 0.0359
F9W: 0.48
V6M: 0.6
